# Measurements gathered from unrelated publications.
# Each line is one published result; not all experiments were run side by side. “And” joins repeats or separate records; there may be more than shown.
# Target: Vascular endothelial growth factor receptor 1 (FLT1, Homo sapiens, UniProt P17948)
SMILES,assay,conditions,how to read,endpoint,result
Nc1ncc2c(n1)-c1c([nH]c3ccc(C4=CCOCC4)cc13)CCC2,"binding, competition with immobilised ligand",1 µM,,remaining binding,100%
CNC(=O)C[C@H](Cc1ccc(C#N)cc1)NC(=O)c1cc(-c2ccc(CN[C@H](C)c3ccc(C)cc3)o2)ccc1Cl,"enzyme activity, inhibitor",1 µM,,activity vs control,92%
CC(C)=CC1OC(C)(C)C2C=C3C(=O)C(Cl)=CC(O)C3C3C(O)C4OC4C(=O)C132 (centres unmarked),"cell-free assay, competition with immobilised ligand",10 µM,,remaining binding,90%
C=CC(=O)N1CCc2ccc(-n3c(=O)ccc4cnc5ccc(-c6cnn(C)c6)cc5c43)cc21,KINOMEscan,1 µM,reference: DMSO control,remaining binding,78%
O=C=[N][Ru-4]123([n]4c5ccc(O)cc5c5c6c(c7cc(F)c[n+]1c7c54)C(=O)NC6=O)[S+]1CC[S+]2CC[S+]3CC1 (centres unmarked),enzyme activity,"100 nM, human enzyme, together with: 10 µM ATP",reference: untreated,remaining activity,64%
COCC12C(=O)NC3C4(C(OC)CC1O)C1CC5(O)C(OC)C(O)C(OC(C)=O)(C1C5OC(=O)c1ccccc1)C3(O)C(OC)C24 (centres unmarked),"kinase activity, inhibitor, ProQinase kinase profiling",25 µM,reference: control,remaining activity,103% and 116%
CCn1cc(C(=O)O)c(=O)c2c(N)c(F)c(NC3CCCCC3)cc21,kinase activity,"0.1 µM, together with: ATP at Km",,inhibition,14.8%
CN1CCN(c2ccc(Nc3ncc(Cl)c(Nc4ccccc4P(C)(C)=O)n3)cc2Br)CC1,"enzyme activity, inhibitor",0.1 µM,,inhibition,50.1%
Cc1cccc(-c2ccc3nc(NC(=O)C4CCOCC4)nn3c2)c1,"enzyme activity, Dundee kinase panel",10 µM,,remaining activity,74%
CN1CCN(Cc2ccc(-c3ccc(CO[C@H]4CCC[C@@H]4NC(=O)c4cc(-c5cnn(C)c5)cnc4N)cc3)cc2)CC1,"enzyme activity, inhibitor",0.1 µM,,inhibition,3%
Cc1cccc(O[C@H]2CCC[C@@H](C(C)CNCc3ccncc3)C2)c1 (relative stereo),cell-free assay,10 µM,,inhibition,3%
CCN1CCN(Cc2ccc(C(=O)Nc3ccc(C)c(NCc4cnc5[nH]ccc5c4OC)c3)cc2C(F)(F)F)CC1,"binding, competition with immobilised ligand",1 µM,,remaining binding,9.2%
C=CC(=O)Nc1cccc(-c2cnc3[nH]cc(C(=O)NC(C)(C)C)c3n2)c1,"enzyme activity, inhibitor",0.1 µM,,inhibition,4%
Cc1cccc(-c2ccc3nc(NC(=O)C4CCCCC4)nn3c2)c1,"enzyme activity, Dundee kinase panel",10 µM,,remaining activity,53%
COc1cc(Nc2nccc(-c3cnn4nc(OC)ccc34)n2)cc(C(F)(F)F)c1,"binding, competition with immobilised ligand",1 µM,,remaining binding,100%
COc1c(Cl)cccc1Nc1c(-c2ccncc2C#C[C@@]2(C)CCCN2C(=O)/C=C/CN(C)C)[nH]c2c1C(=O)NCC2,"cell-free assay, competition with immobilised ligand",3 µM,,remaining binding,83%
C=CC(=O)N1CCCC(n2c(=O)c3ncccc3n(Cc3ccc(Oc4ccccc4)cc3)c2=O)C1 (centres unmarked),"cell-free assay, competition with immobilised ligand",1 µM,,remaining binding,100%
NC(=O)C[C@H]1CCc2sc3ncnc(O[C@H]4CC[C@H](N5CCOCC5)CC4)c3c21,"enzyme activity, inhibitor",10 µM,,inhibition,15%
COc1cc(OC)c(F)c(/C=C/c2cnc3ccn(S(=O)(=O)c4cn(CCF)cn4)c3n2)c1F,,10 nM,,inhibition,0%
Cc1ccc(C(=O)Nc2cccc(C(F)(F)F)c2)cc1Nc1cncc(C(N)=O)c1,"binding, competition with immobilised ligand",1 µM,,remaining binding,33%

# Repeated from above:
SMILES,assay,conditions,how to read,endpoint,result
CN1CCN(c2ccc(Nc3ncc(Cl)c(Nc4ccccc4P(C)(C)=O)n3)cc2Br)CC1,"enzyme activity, inhibitor",0.1 µM,,inhibition,50.1%
Cc1cccc(-c2ccc3nc(NC(=O)C4CCOCC4)nn3c2)c1,"enzyme activity, Dundee kinase panel",10 µM,,remaining activity,74%
CN1CCN(Cc2ccc(-c3ccc(CO[C@H]4CCC[C@@H]4NC(=O)c4cc(-c5cnn(C)c5)cnc4N)cc3)cc2)CC1,"enzyme activity, inhibitor",0.1 µM,,inhibition,3%
